Published values pooled from the literature.
Numbers after ± are the reported error. In brackets after ≈: the same amount, converted by molar mass.
Organism: Acinetobacter baumannii

| SMILES | test | system | setting | measurement | result |
| --- | --- | --- | --- | --- | --- |
| CC[C@H](C)[C@H](NC(=O)[C@H](CCCCN)NC(=O)[C@@H](NC(=O)[C@H](CS)NC(=O)[C@H](CCCNC(=N)N)NC(=O)[C@H](CCCNC(=N)N)NC(=O)[C@H](CC(N)=O)NC(=O)[C@H](CCCNC(=N)N)NC(=O)[C@H](CS)NC(=O)[C@@H](NC(=O)[C@H](CO)NC(=O)[C@@H](NC(=O)[C@H](CS)NC(=O)[C@H](CCCCN)NC(=O)[C@@H](N)CCCNC(=N)N)[C@@H](C)CC)C(C)C)[C@@H](C)CC)C(=O)N[C@@H](CS)C(=O)N[C@@H](CCCNC(=N)N)C(=O)O | – | AB5075, RPMI | median | MBC | 8 µg/mL (≈ 3.8 µM) |
| O=c1c(O)ccc(Br)cc1O | – | multidrug-resistant Ab2 | – | MIC80 | 19.8 µM (≈ 4.3 µg/mL) |
| CCn1c(-c2ccc(OC)cc2)c(-c2ccc(OC)cc2)n(CC)c1=[Se+][Au-][P+](CC)(CC)CC.[Cl-] | refers to: TrxB | carbapenem-resistant | concentration not given, 2 h | mRNA level | decreased |
| CC(C)C[C@H](NC(=O)[C@H](Cc1ccc(O)cc1)NC(=O)[C@@H]1CCCN1C(=O)[C@H](CCCNC(=N)N)NC(=O)[C@@H]1CCCN1C(=O)[C@H](CCCCN)NC(=O)[C@H](CC(=O)O)NC(=O)[C@@H]1CCCN1C(=O)[C@H](CCCNC(=N)N)NC(=O)C1(N)CCCCC1)C(=O)N1CCC[C@H]1C(=O)N[C@@H](CCCNC(=N)N)C(=O)N1CCC[C@H]1C(=O)N[C@@H](CCCNC(=N)N)C(=O)N1CCC[C@H]1C(=O)N1CCC[C@H]1C(=O)N[C@@H](CCCNC(=N)N)C(=O)N1CCC[C@H]1C(=O)N[C@H](C(=O)N[C@@H](CCCNC(=N)N)C(=O)N[C@@H](CSc1c(F)c(F)c(-c2c(F)c(F)c(SC[C@H](NC(=O)[C@H](CCCNC(=N)N)NC(=O)[C@@H](NC(=O)[C@@H]3CCCN3C(=O)[C@H](CCCNC(=N)N)NC(=O)[C@@H]3CCCN3C(=O)[C@@H]3CCCN3C(=O)[C@H](CCCNC(=N)N)NC(=O)[C@@H]3CCCN3C(=O)[C@H](CCCNC(=N)N)NC(=O)[C@@H]3CCCN3C(=O)[C@H](CC(C)C)NC(=O)[C@H](Cc3ccc(O)cc3)NC(=O)[C@@H]3CCCN3C(=O)[C@H](CCCNC(=N)N)NC(=O)[C@@H]3CCCN3C(=O)[C@H](CCCCN)NC(=O)[C@H](CC(=O)O)NC(=O)[C@@H]3CCCN3C(=O)[C@H](CCCNC(=N)N)NC(=O)C3(N)CCCCC3)C(C)C)C(=O)NN)c(F)c2F)c(F)c1F)C(=O)NN)C(C)C | – | 19606 | – | MBC | 30.6 ± 0.6 µg/mL (≈ 5.58 µM) |
| Oc1cc(C(F)(F)F)ccc1-c1nc2c(C(F)(F)F)cc(C(F)(F)F)cc2[nH]1 | colistin potentiator | AB 4112, colistin-resistant | 5 µM | MIC of colistin | 0.5 µg/mL |
| CCn1c(-c2ccc(-c3ccc(F)cc3)cc2)c(-c2ccc(-c3ccc(F)cc3)cc2)n(CC)c1=[Se+][Au-][P+](CC)(CC)CC.[Cl-] | bacterial growth, checkerboard microdilution | carbapenem-resistant | added: cefotaxime | FIC index | 0.375 |
| CC(C)C[C@H](NC(=O)[C@H](Cc1ccc(O)cc1)NC(=O)[C@@H]1CCCN1C(=O)[C@H](CCCNC(=N)N)NC(=O)[C@@H]1CCCN1C(=O)[C@H](CCCCN)NC(=O)[C@H](CC(=O)O)NC(=O)[C@@H]1CCCN1C(=O)[C@H](CCCNC(=N)N)NC(=O)C1(N)CCCCC1)C(=O)N1CCC[C@H]1C(=O)N[C@@H](CCCNC(=N)N)C(=O)N1CCC[C@H]1C(=O)N[C@@H](CCCNC(=N)N)C(=O)N1CCC[C@H]1C(=O)N1CCC[C@H]1C(=O)N[C@@H](CCCNC(=N)N)C(=O)N1CCC[C@H]1C(=O)N[C@H](C(=O)N[C@@H](CCCNC(=N)N)C(=O)N[C@@H](CSc1c(F)c(F)c(SC[C@H](NC(=O)[C@H](CCCNC(=N)N)NC(=O)[C@@H](NC(=O)[C@@H]2CCCN2C(=O)[C@H](CCCNC(=N)N)NC(=O)[C@@H]2CCCN2C(=O)[C@@H]2CCCN2C(=O)[C@H](CCCNC(=N)N)NC(=O)[C@@H]2CCCN2C(=O)[C@H](CCCNC(=N)N)NC(=O)[C@@H]2CCCN2C(=O)[C@H](CC(C)C)NC(=O)[C@H](Cc2ccc(O)cc2)NC(=O)[C@@H]2CCCN2C(=O)[C@H](CCCNC(=N)N)NC(=O)[C@@H]2CCCN2C(=O)[C@H](CCCCN)NC(=O)[C@H](CC(=O)O)NC(=O)[C@@H]2CCCN2C(=O)[C@H](CCCNC(=N)N)NC(=O)C2(N)CCCCC2)C(C)C)C(=O)NN)c(F)c1F)C(=O)NN)C(C)C | time-kill | – | 2 × MIC, 1 h | reduction in viable count | 1.18 log CFU/mL |
| Oc1ccc(C(F)(F)F)cc1-c1nc2c(Cl)cc(Cl)cc2[nH]1 | colistin potentiator | AB 17978, mcr-1, colistin-resistant | 5 µM | colistin MIC | 0.5 µg/mL |

A few entries again:
| SMILES | test | system | setting | measurement | result |
| --- | --- | --- | --- | --- | --- |
| CC[C@H](C)[C@H](NC(=O)[C@H](CCCCN)NC(=O)[C@@H](NC(=O)[C@H](CS)NC(=O)[C@H](CCCNC(=N)N)NC(=O)[C@H](CCCNC(=N)N)NC(=O)[C@H](CC(N)=O)NC(=O)[C@H](CCCNC(=N)N)NC(=O)[C@H](CS)NC(=O)[C@@H](NC(=O)[C@H](CO)NC(=O)[C@@H](NC(=O)[C@H](CS)NC(=O)[C@H](CCCCN)NC(=O)[C@@H](N)CCCNC(=N)N)[C@@H](C)CC)C(C)C)[C@@H](C)CC)C(=O)N[C@@H](CS)C(=O)N[C@@H](CCCNC(=N)N)C(=O)O | – | AB5075, RPMI | median | MBC | 8 µg/mL (≈ 3.8 µM) |
